Measurements collected from several papers.
Protocols differ between the studies behind these lines. ± gives the spread as reported.

Structure (SMILES)	tested on	assay	test system	conditions	how to read	quantity	value
CN[C@@](C)(C[18F])C(=O)O	MDA-MB-468 tumour model	–	host not given, muscle	2 h, tumour-bearing	–	tracer uptake	0.9 %ID/g
CC[C@]1(O)C[C@H]2CN(CCc3c([nH]c4ccccc34)[C@@](C(=O)OC)(c3cc4c(cc3OC)N(C=O)[C@H]3[C@@](O)(C(=O)OC)[C@H](OC(C)=O)[C@]5(CC)C=CCN6CC[C@]43[C@@H]65)C2)C1	Artemia salina	–	–	24 h	–	LC50	1.28 µg/mL
CNC(=O)c1cc(Cl)cc(C)c1NC(=O)c1cc(Br)nn1-c1ncccc1Cl	Apis mellifera	acute contact toxicity	female worker bees	topical, 0.2 µg/bee, 48 h, with: propiconazole 10 µg/bee 1 h before	–	mortality	69 ± 13%
CCCCCCCCCCCCCN(C)C	Oncorhynchus mykiss	liver S9 substrate depletion	rainbow trout liver S9	tested individually	–	intrinsic clearance in vitro	1.24 mL/h/mg S9 protein
C/C(=N\C#N)N(C)Cc1ccc(Cl)nc1	Folsomia candida	reproduction, OECD 232	LUFA 2.2 soil	28 days	–	EC10	0.05 mg/kg dry soil
CCOP(=S)(OCC)Oc1nc(Cl)c(Cl)cc1Cl	Daphnia magna	–	–	48 h	–	LC50	2.9 nM
N=C(N)c1ccc(-c2ccc(-c3cccs3)o2)cc1F	Salmonella enterica	sodium azide mutagenicity	TA1535	10 µM, 48 h, with: sodium azide 2 µg/plate after pre-exposure	–	inhibition	67%
c1ccc(COCc2nc3ccccc3[nH]2)cc1	Artemia salina	–	–	24 h	–	LC50	16.7 µg/mL
CCCCCCCCCN(C)C	Oncorhynchus mykiss	liver S9 substrate depletion	rainbow trout liver S9	tested individually	–	intrinsic clearance in vivo	326 mL/h/g liver
CCCC(CCC)C(=O)Nc1ccccc1O	Artemia franciscana	–	larvae, artificial seawater	0.10 mM, 24 h, 0.17% DMSO	baseline: DMSO control	mortality	2.38 ± 2.38%
CCCCCCCCCCCCN(C)C	Oncorhynchus mykiss	liver S9 substrate depletion	pooled rainbow trout liver S9	pH 7.8, tested individually	–	intrinsic clearance in vitro	1.9 mL/h/mg S9 protein
N=C(N)c1ccc(-c2ccc(-c3ccco3)o2)c(F)c1	Salmonella enterica	–	TA1535	20 µM, 48 h, with: sodium azide after pre-exposure	baseline: sodium azide alone	mutant frequency	17%
[123I]c1cncc(OC[C@@H]2CCN2)c1	–	SPECT	human, temporal lobe	intravenous bolus plus infusion, 8.1 mCi	baseline: plasma	tissue/plasma ratio	15
CCOc1ccc2c(c1)C(C)=CC(C)(C)N2	Oncorhynchus mykiss	–	well water	96 h	–	LC50	18 µg/mL
Clc1ccc(-c2nc3ccccc3[nH]2)cc1	Artemia salina	–	–	24 h	–	LC50	148 µg/mL
CNC(C)Cc1ccc2c(c1)OCO2 (racemic)	–	visual analog scale, refers to: Anxious	human	oral, 1.5 mg/kg, mean over session, unit not given	baseline: pre-dose baseline	mood rating	14.2
O=S1OCC2C(CO1)C1(Cl)C(Cl)=C(Cl)C2(Cl)C1(Cl)Cl (centres unmarked)	Daphnia magna	–	neonates under 24 h	48 h	–	LC50	4640 nM
O=C(O)c1cc[c]([Hg][Cl])cc1	Trypanosoma brucei	viability, flow cytometry	bloodstream form	24 h	–	EC50	2100 ± 200 nM
Oc1cc(Cl)ccc1Oc1ccc(Cl)cc1Cl	Daphnia magna	–	neonates under 24 h	48 h	–	LC50	995 to 1190 nM
NC(Cc1cc(O)c(O)cc1O)C(=O)O (racemic)	Leishmania donovani	–	intracellular amastigote	–	–	EC50	> 100000 nM

A few entries again:
Structure (SMILES)	tested on	assay	test system	conditions	how to read	quantity	value
CCCCCCCCCCCCCN(C)C	Oncorhynchus mykiss	liver S9 substrate depletion	rainbow trout liver S9	tested individually	–	intrinsic clearance in vitro	1.24 mL/h/mg S9 protein
C/C(=N\C#N)N(C)Cc1ccc(Cl)nc1	Folsomia candida	reproduction, OECD 232	LUFA 2.2 soil	28 days	–	EC10	0.05 mg/kg dry soil
CCOP(=S)(OCC)Oc1nc(Cl)c(Cl)cc1Cl	Daphnia magna	–	–	48 h	–	LC50	2.9 nM
